# Experimental data pooled from the literature.
# Lines come from different studies, so protocols differ. Numbers after ± are the reported error.
Compound,target or system,test,system,conditions,how to read,quantity,value
CNS(=O)(=O)Nc1nccc(Cc2c(C)c3ccc(Oc4ncccc4F)cc3oc2=O)c1F,KMS-34,cell viability,,7 days,,IC50,597 nM
C=CC(=O)Nc1cccc(Cn2ncc3cnc(Nc4cnn(CCOC)c4)nc32)c1,LIMK1 human,"binding, KINOMEscan",,100 nM,lower = stronger binding,percent of control,45%
Nc1ncc(-c2cc(-c3cnn(CC(F)(F)F)c3)ncc2F)nc1C(=O)NC1CNCC(F)C1 (stereo not drawn),CDK4-cyclinD3,KINOMEscan competition binding,,1 µM,baseline: DMSO control,remaining binding,93%
C[n+]1cc(/C=N/NC(=O)N/N=C/c2cc3ccccc3[n+](C)c2)cc2ccccc21,myc22 MYC G4-DNA parallel,FRET melting,,"1 µM, K1 buffer, DNA 0.2 µM, with: ds26 10 µM",,ΔTm,3.8 ± 0.1 °C
COC1CN([C@H]2CC[C@H]([C@@]3(C)Oc4c(Cl)cc(C(=O)NCc5c(SC)cc(C)[nH]c5=O)c(C)c4O3)CC2)C1,,"RNA-seq, refers to: KIF3C","human, whole blood","dose not given, 24 h",baseline: pretreatment baseline,log2 fold change,1.15
C[n+]1cccc2cc(/C=N/NC(=O)N/N=C/c3ccc4c(ccc[n+]4C)c3)ccc21,myc22 MYC G4-DNA parallel,FRET melting,,"1 µM, K1 buffer, DNA 0.2 µM",,ΔTm,5.8 ± 0.3 °C
Cc1ncsc1-c1ccc(C(C)NC(=O)C2CC(O)CN2C(=O)C(NC(=O)CCCCCCCCCCN2CCCC(Nc3ncc(Cl)c(Nc4ccccc4S(=O)(=O)C(C)C)n3)C2)C(C)(C)C)cc1 (stereo not drawn),22Rv1,"RNA-seq, refers to: SENP8 mRNA",,concentration not given,baseline: DMSO,log2 fold change,-1.45
O=C(N/N=C/c1ccc(C[n+]2ccccc2)cc1)C(=O)N/N=C/c1ccc(C[n+]2ccccc2)cc1,myc22 MYC G4-DNA parallel,FRET melting,,"1 µM, K1 buffer, DNA 0.2 µM, with: ds26 10 µM",,ΔTm,3.4 ± 0.4 °C
CN1CCCNC(=O)c2cccc(c2)C(=O)NCCCN(C)CCCNc2cccc3c2C(=O)c2cccc(c2C3=O)NCCC1,SAS,"RNA-Seq, refers to: SLC26A11 mRNA",,"1 µM, 6 h",baseline: untreated cells,log2 fold change,3.44
